# Experimental data gathered from unrelated publications.
# Each line is one published result; not all experiments were run side by side. ± marks the error that the study gave.
# ASIC1: Acid-sensing ion channel 1 (ASIC1, Homo sapiens, UniProt P78348)
# Sequence of UniProt P78348 (whole entry, looked up): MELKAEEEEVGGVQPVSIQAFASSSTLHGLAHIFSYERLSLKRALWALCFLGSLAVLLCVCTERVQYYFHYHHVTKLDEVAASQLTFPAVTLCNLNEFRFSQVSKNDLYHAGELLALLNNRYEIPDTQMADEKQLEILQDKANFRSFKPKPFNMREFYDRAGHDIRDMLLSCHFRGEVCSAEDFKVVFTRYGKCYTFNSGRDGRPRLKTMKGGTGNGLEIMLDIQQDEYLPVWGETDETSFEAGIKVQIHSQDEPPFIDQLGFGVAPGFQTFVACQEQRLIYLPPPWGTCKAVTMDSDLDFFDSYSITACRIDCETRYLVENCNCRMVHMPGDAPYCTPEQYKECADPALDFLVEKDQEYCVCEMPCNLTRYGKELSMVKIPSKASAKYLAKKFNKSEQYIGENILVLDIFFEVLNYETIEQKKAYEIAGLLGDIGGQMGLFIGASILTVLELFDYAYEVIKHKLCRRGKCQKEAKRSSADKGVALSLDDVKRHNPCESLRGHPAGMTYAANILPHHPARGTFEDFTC
# embR: Transcriptional regulatory protein EmbR (embR, Mycobacterium tuberculosis, UniProt P9WGJ9)
# Sequence of UniProt P9WGJ9 (whole entry, looked up): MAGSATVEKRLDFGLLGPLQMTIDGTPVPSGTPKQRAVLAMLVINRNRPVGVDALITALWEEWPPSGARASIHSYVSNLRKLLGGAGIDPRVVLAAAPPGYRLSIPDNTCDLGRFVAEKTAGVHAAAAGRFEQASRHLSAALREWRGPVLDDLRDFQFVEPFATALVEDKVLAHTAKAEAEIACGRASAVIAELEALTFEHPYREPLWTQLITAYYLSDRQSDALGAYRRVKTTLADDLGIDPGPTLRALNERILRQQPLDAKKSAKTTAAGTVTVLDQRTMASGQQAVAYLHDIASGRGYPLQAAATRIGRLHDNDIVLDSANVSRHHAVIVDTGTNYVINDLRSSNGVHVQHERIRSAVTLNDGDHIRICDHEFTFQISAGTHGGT
# Spike glycoprotein: Spike glycoprotein (Severe acute respiratory syndrome coronavirus 2, UniProt P0DTC2)
# Sequence of UniProt O82882 (whole entry, looked up): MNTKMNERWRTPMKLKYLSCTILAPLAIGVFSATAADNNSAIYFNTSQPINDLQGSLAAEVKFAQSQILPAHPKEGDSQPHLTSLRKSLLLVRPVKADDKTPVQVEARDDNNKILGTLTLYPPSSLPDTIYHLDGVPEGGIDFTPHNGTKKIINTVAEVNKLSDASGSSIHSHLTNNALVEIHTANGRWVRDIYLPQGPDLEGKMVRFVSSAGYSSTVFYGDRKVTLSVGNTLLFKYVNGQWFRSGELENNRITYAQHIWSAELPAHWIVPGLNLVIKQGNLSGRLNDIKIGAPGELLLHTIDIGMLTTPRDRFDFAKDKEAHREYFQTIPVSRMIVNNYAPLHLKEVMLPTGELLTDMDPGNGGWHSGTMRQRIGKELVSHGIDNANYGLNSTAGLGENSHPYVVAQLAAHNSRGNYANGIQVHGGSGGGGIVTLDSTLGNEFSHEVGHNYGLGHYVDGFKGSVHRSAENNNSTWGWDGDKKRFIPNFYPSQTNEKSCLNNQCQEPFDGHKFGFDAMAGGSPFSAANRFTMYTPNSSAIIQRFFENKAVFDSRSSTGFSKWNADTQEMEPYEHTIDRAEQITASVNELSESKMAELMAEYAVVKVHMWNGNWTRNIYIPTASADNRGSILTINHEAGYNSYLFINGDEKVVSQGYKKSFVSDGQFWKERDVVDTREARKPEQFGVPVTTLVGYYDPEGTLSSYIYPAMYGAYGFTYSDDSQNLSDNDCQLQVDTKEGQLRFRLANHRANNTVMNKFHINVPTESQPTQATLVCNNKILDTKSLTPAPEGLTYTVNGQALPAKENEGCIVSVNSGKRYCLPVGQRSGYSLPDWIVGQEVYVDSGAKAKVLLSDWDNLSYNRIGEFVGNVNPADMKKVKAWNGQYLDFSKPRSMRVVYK
Compound,target or system,assay,test system,conditions,scale,measurement,value
CC(C)OC(=O)[C@H](C)N[P@](=O)(OC[C@H]1O[C@@H](n2ccc(=O)[nH]c2=O)[C@](C)(F)[C@@H]1O)Oc1ccccc1,"Genome polyprotein, NS5 RdRp domain (Yellow fever virus, UniProt P03314)",,,,,kon,76.7 M⁻¹ s⁻¹
CC[C@H](C)[C@H](NC(=O)[C@@H]1CCCN1C(=O)[C@H](C)NC(=O)[C@@H]1CSSC[C@@H]2NC(=O)[C@H](CC(=O)O)NC(=O)[C@H](CCCNC(=N)N)NC(=O)[C@H](CCC(=O)O)NC(=O)[C@H](CCCNC(=N)N)NC(=O)CNC(=O)[C@H](CC(=O)O)NC(=O)[C@@H]3CSSC[C@H](NC(=O)[C@H](CCC(=O)O)NC(=O)[C@H](CC(C)C)NC(=O)CNC(=O)[C@H](C)NC(=O)[C@H](CSSC[C@H](NC(=O)[C@H](Cc4ccccc4)NC(=O)[C@@H](N)CO)C(=O)N[C@@H](CC(C)C)C(=O)N[C@@H](C(C)C)C(=O)N[C@@H](CCCCN)C(=O)N[C@@H](Cc4c[nH]c5ccccc45)C(=O)N[C@@H](CCCCN)C(=O)N[C@@H](CCC(N)=O)C(=O)N3)NC2=O)C(=O)N[C@@H](Cc2c[nH]c3ccccc23)C(=O)N[C@@H](CCCCN)C(=O)N[C@@H](CCCNC(=N)N)C(=O)N[C@@H](CO)C(=O)NCC(=O)N[C@@H](CC(N)=O)C(=O)N[C@@H](CCCCN)C(=O)N[C@@H](CO)C(=O)N[C@@H](CO)C(=O)N[C@@H](C(C)C)C(=O)N1)C(=O)N[C@H](C(=O)O)[C@@H](C)O,ASIC1,"binding, SPR",,pH 7.5,,kon,2.1e+07 M⁻¹ s⁻¹
Cn1cnc(Cn2c(=O)[nH]/c(=N\c3cc4cn(C)nc4cc3Cl)n(Cc3cc(F)c(F)cc3F)c2=O)n1,,,"human, moderate renal impairment, plasma","oral, 375 mg single dose",,renal clearance,0.677 mL/min
CC(C)C[C@H](NC(=O)[C@H](C)NC(=O)[C@H](CCC(=O)O)NC(=O)[C@@H](N)Cc1c[nH]cn1)C(=O)N[C@@H](CO)C(=O)N[C@@H](CC(=O)O)C(=O)N1CCC[C@H]1C(=O)N[C@@H](CC(=O)O)C(=O)O,embR,binding,,,,kon,250 ± 440 M⁻¹ s⁻¹
Nc1ncnc2c([C@@H]3N[C@H](CO)[C@@H](O)[C@H]3O)c[nH]c12,Yellow fever virus,viral replication,"Vero 76, 17D",94.7 µM,,inhibition,94.6%
CC(C)C[C@H](NC(=O)[C@@H](N)CO)C(=O)N[C@@H](CCC(=O)O)C(=O)N[C@H](C(=O)N[C@H](C(=O)N[C@@H](CCC(=O)O)C(=O)N[C@@H](C)C(=O)N[C@@H](CC(=O)O)C(=O)O)[C@@H](C)O)C(C)C,embR,binding,,,,kon,270 ± 240 M⁻¹ s⁻¹
CC[C@H](C)[C@H](NC(=O)[C@H](CC(C)C)NC(=O)[C@H](Cc1c[nH]c2ccccc12)NC(=O)[C@H](CCC(N)=O)NC(=O)[C@@H](NC(=O)[C@H](Cc1ccccc1)NC(=O)[C@H](C)NC(=O)[C@H](CCCCNC(=O)COCCOCCNC(=O)COCCOCCNC(=O)CC[C@H](NC(=O)CCCCCCCCCCCCCCCCCCC(=O)O)C(=O)O)NC(=O)[C@H](CCC(N)=O)NC(=O)[C@H](C)NC(=O)[C@@H](NC(=O)[C@H](CCCCN)NC(=O)[C@H](CC(=O)O)NC(=O)[C@H](CC(C)C)NC(=O)C(C)(C)NC(=O)[C@@H](NC(=O)[C@H](CO)NC(=O)[C@H](Cc1ccc(O)cc1)NC(=O)[C@H](CC(=O)O)NC(=O)[C@H](CO)NC(=O)[C@@H](NC(=O)[C@H](Cc1ccccc1)NC(=O)[C@@H](NC(=O)CNC(=O)[C@H](CCC(=O)O)NC(=O)C(C)(C)NC(=O)[C@@H](N)Cc1ccc(O)cc1)[C@@H](C)O)[C@@H](C)O)[C@@H](C)CC)[C@@H](C)CC)C(C)C)C(=O)N[C@@H](C)C(=O)NCC(=O)NCC(=O)N1CCC[C@H]1C(=O)N[C@@H](CO)C(=O)N[C@@H](CO)C(=O)NCC(=O)N[C@@H](C)C(=O)N1CCC[C@H]1C(=O)N1CCC[C@H]1C(=O)N1CCC[C@H]1C(=O)N[C@@H](CO)C(N)=O,,,healthy subjects,"1.5 mg, day 29, multiple ascending dose, LS mean",baseline: baseline,systolic blood pressure change,2.32 mmHg
NC[C@H]1O[C@H](O[C@H]2[C@H](O)[C@@H](O[C@H]3O[C@H](CO)[C@@H](O)[C@H](N)[C@H]3O)[C@H](N)C[C@@H]2N)[C@H](N)C[C@@H]1O,Spike glycoprotein,"binding, BLI",,,,kon,77.4 M⁻¹ s⁻¹
CC[C@H](C)[C@H](NC(=O)[C@@H]1CCCN1C(=O)[C@H](C)NC(=O)[C@@H]1CSSC[C@@H]2NC(=O)[C@H](CC(=O)O)NC(=O)[C@H](CCCNC(=N)N)NC(=O)[C@H](CCC(=O)O)NC(=O)[C@H](CCCNC(=N)N)NC(=O)CNC(=O)[C@H](CC(=O)O)NC(=O)[C@@H]3CSSC[C@H](NC(=O)[C@H](CCC(=O)O)NC(=O)[C@H](CC(C)C)NC(=O)CNC(=O)[C@H](C)NC(=O)[C@H](CSSC[C@H](NC(=O)[C@H](Cc4ccccc4)NC(=O)[C@@H](N)CO)C(=O)N[C@@H](CC(C)C)C(=O)N[C@@H](C(C)C)C(=O)N[C@@H](CCCCN)C(=O)N[C@@H](Cc4c[nH]c5ccccc45)C(=O)N[C@@H](CCCCN)C(=O)N[C@@H](CCC(N)=O)C(=O)N3)NC2=O)C(=O)N[C@@H](Cc2c[nH]c3ccccc23)C(=O)N[C@@H](CCCCN)C(=O)N[C@@H](CCCNC(=N)N)C(=O)N[C@@H](CO)C(=O)NCC(=O)N[C@@H](CO)C(=O)N[C@@H](CCCCN)C(=O)N[C@@H](CO)C(=O)N[C@@H](CO)C(=O)N[C@@H](C(C)C)C(=O)N1)C(=O)N[C@H](C(=O)O)[C@@H](C)O,ASIC1,"binding, SPR",,pH 7.5,,kon,1.53e+07 M⁻¹ s⁻¹
COC(=O)[C@]1(C)CC[C@]2(C(=O)O[C@@H]3O[C@H](CO)[C@@H](O)[C@H](O)[C@H]3O)CC[C@]3(C)C(=CC[C@@H]4[C@@]5(C)C[C@H](O)[C@H](O[C@@H]6OC[C@@H](O[C@@H]7O[C@H](CO)[C@@H](O)[C@H](O)[C@H]7O)[C@H](O)[C@H]6O)[C@@](C)(CO)C5CC[C@]43C)[C@H]2C1 (stereo partly shown),Spike glycoprotein,"binding, biolayer interferometry",,,,kon,41200 M⁻¹ s⁻¹
CC(=O)N[C@H]1[C@@H](OC[C@H](NC(=O)[C@H](C)NC(=O)[C@H](C)N)C(=O)N[C@H](C(=O)N[C@H](C(=O)N[C@H](C(=O)N2CCC[C@H]2C(=O)N[C@@H](C)C(=O)N2CCC[C@H]2C(=O)N[C@@H](C)C(N)=O)[C@@H](C)O[C@H]2O[C@H](CO)[C@H](O)[C@H](O)[C@H]2NC(C)=O)[C@@H](C)O[C@H]2O[C@H](CO)[C@H](O)[C@H](O)[C@H]2NC(C)=O)[C@@H](C)O[C@H]2O[C@H](CO)[C@H](O)[C@H](O)[C@H]2NC(C)=O)O[C@H](CO)[C@H](O)[C@@H]1O,"Metalloprotease StcE (stcE, Escherichia coli O157:H7, UniProt O82882)",binding,"Escherichia coli, EHEC",pH 7.5,,kon,498000 M⁻¹ s⁻¹
CNC(=O)[C@@H](NC(=O)[C@H](CC(C)C)[C@H](O)C(=O)NO)C(C)(C)C,human fibrinogen,SDS-PAGE,Daboia russelii,"concentration not given, unit not given, together with: MH venom",baseline: untreated fibrinogen,remaining fibrinogen Bβ chain,0.872
CC(C)(O)[C@H]1CC[C@@](C)([C@H]2[C@@H](O)C[C@@]3(C)[C@@H]4C[C@H](O[C@@H]5O[C@H](CO)[C@@H](O)[C@H](O)[C@H]5O)[C@H]5C(C)(C)[C@@H](O[C@@H]6OC[C@@H](O)[C@H](O)[C@H]6O)CC[C@@]56C[C@@]46CC[C@]23C)O1,Spike glycoprotein,"binding, biolayer interferometry",,,,kon,3460 M⁻¹ s⁻¹

# Some of these lines once more:
Compound,target or system,assay,test system,conditions,scale,measurement,value
CC(C)C[C@H](NC(=O)[C@@H](N)CO)C(=O)N[C@@H](CCC(=O)O)C(=O)N[C@H](C(=O)N[C@H](C(=O)N[C@@H](CCC(=O)O)C(=O)N[C@@H](C)C(=O)N[C@@H](CC(=O)O)C(=O)O)[C@@H](C)O)C(C)C,embR,binding,,,,kon,270 ± 240 M⁻¹ s⁻¹
